Measured values pooled from the literature.
Each line is one published result; not all experiments were run side by side.
Read-out: chemical stability

`Cn1nnc2c(C#N)ncn2c1=O` gave a half-life of 0.5 h (HPLC; PBS; pH 7.4).
With `CCOC(=O)CCC(=O)Oc1ccc(/C=C/C(=O)/C=C(O)/C=C/c2ccc(OC(=O)CCC(=O)OCC)c(OC)c2)cc1OC` the half-life was 8.32 h (aqueous buffer; pH 7.4).
With `OC[C@H]1O[C@@H](OCCOCCOCC[N+]2(C[B-](F)(F)F)CCCCC2)[C@H](O)[C@@H](O)[C@@H]1O` the half-life was 24 h (NMR; aqueous buffer; 2 mg/mL, pH 7.5).
`CCN(c1nc(N[C@H](CC(N)=O)C(=O)NC)nc(N2CCN(c3ccccc3C#N)CC2)n1)C1CCCCC1` gave a half-life of over 4 h (PBS).
With `CC(=O)O[C@@H]1CC[C@@]2(C)C(CC[C@]3(C)C2C(=O)C=C2C4[C@@H](C)[C@H](C)CC[C@]4(C)CC[C@]23C)[C@@]1(C)C(=O)OCC(=O)Oc1cc(C)ccc1C(C)C` (stereo partly shown) the half-life was 20.9 h (HPLC; aqueous buffer; 75 µM, pH 7.4).
With `OB(O)c1sccc1/C=N/OCc1ccccc1` the half-life was 2 h (PBS; 80 µM, pH 7.4).
With `CO[C@@H](C[C@H]1C(C)=CC[C@@H]2[C@]3(C)C[C@H](O[C@@H]4O[C@@H](C)[C@H](O)[C@@H](O)[C@H]4O)[C@@H](O)C(C)(C)[C@H]3CC[C@]21C)[C@H](N)C(=O)O` the half-life was over 8 h (simulated intestinal fluid; 1 µM, pH 6.8).
`CC(=O)O[C@@H]1CC[C@@]2(C)C(CC[C@]3(C)C2C(=O)C=C2C4[C@@H](C)[C@H](C)CC[C@]4(C)CC[C@]23C)[C@@]1(C)C(=O)N/N=C1/C(=O)Nc2ccccc21` (stereo partly shown) gave a half-life of 110 h (HPLC; aqueous buffer; 75 µM, pH 7.4).
`CCCC[N+](CCCC)(CCOCCOCCO[C@@H]1O[C@H](CO)[C@@H](O)[C@H](O)[C@H]1O)C[B-](F)(F)F` has a half-life of 72 h (NMR; aqueous buffer; 2 mg/mL, pH 7.5).
`C[C@@H](O)[C@H](NC(=O)OP(=O)(O)OC[C@H]1O[C@@H](n2cnc3c(N)ncnc32)[C@H](O)[C@@H]1O)C(=O)O` gave a half-life of 0.157 h (HPLC; aqueous buffer; 10 µM, pH 7.5).
